Results gathered from unrelated publications.
Compare with care: the assays were run in different laboratories. ± marks the error that the study gave.

Substance | assay | system | conditions | how to read | endpoint | result
CCCCN(CCCC)CCC(O)c1cc2c(Cl)cc(Cl)cc2c2cc(C(F)(F)F)ccc12 (stereo not drawn) | shake-flask | soybean oil | 37 °C | – | thermodynamic solubility | 52.8 ± 6.3 mg/g
O=c1cc(-c2ccc(O)cc2)oc2cc(O[C@@H]3O[C@H](CO)[C@@H](O)[C@H](O)[C@H]3O)cc(O)c12 | mass spectrometry | Caco-2 | 40 µM, 6 h | – | Papp A→B | 5.75 ×10⁻⁶ cm/s
Oc1c(Br)cc(Cl)c2cccnc12 | – | male Sprague-Dawley rats, kidney | intravenous, 5 mg/kg, 2 h | – | concentration | 406 ± 77.1 ng/g
Cn1c(C(F)(F)F)cc(=O)n(-c2cc(Oc3cccnc3OCC(=O)O)c(Cl)cc2F)c1=O | – | beagle dog, male, plasma | oral, 100 mg/kg/day, 13 weeks, NOAEL of epyrifenacil | – | AUC(0-24 h) | 10600 ng·h/mL
CCCCC/C=C/C(=O)CCc1ccc(O)c(OC)c1 | – | rat, small intestine site 4 contents | oral, dose not given, 4 h, β-glucuronidase treated | relative to: ingested amount | recovery | 0.34%
L-valine isopropyl ester ibuprofenate | – | pig, abdominal skin | dose not given, 24 h, pH 7.4, 32 °C, donor 70% ethanol | – | cumulative permeated amount | 604.5 ± 4.87 µg/cm2
CC(C)=CCc1c(O)cc2oc3c(CC=C(C)C)c(O)c(O)c(CC=C(C)C)c3c(=O)c2c1O | – | Balb/c nu/nu mice, HT-29 xenograft, tumour tissue | oral, 901 mg/kg xanthones in diet, 2 weeks after implantation | – | free tumour concentration | 90 ± 30 ng/g
COc1ccc2[nH]c([S+]([O-])Cc3ncc(C)c(OC)c3C)nc2c1 (stereo not drawn) | UHPLC-MS/MS, noncompartmental | healthy Chinese volunteers, CYP2C19 *1/*2, plasma | oral, 20 mg single dose | – | t1/2 | 1.12 ± 0.62 h
Cn1c(-c2ccc(C(N)=O)cc2F)nnc1C(C)(C)Oc1c(F)cc(Cl)cc1F | – | healthy young Japanese subjects, plasma | oral, 20 mg once daily, day 18, 14 days dosing | – | Tmax median | 1.5 h
CC1(C)C(/C=C/C=C/C=C/C=C2/N(CCC(=O)O)c3ccc4ccccc4c3C2(C)C)=[N+](CCC(=O)[O-])c2ccc3ccccc3c21 | NIR fluorescence imaging | mouse, ear | intravenous | – | extravasation half-life | 3.86 min
Cc1cc(=O)n(-c2ccccc2)n1C | – | perfused human placental cotyledon | 531 µM, 10 min, 36.5 °C, maternal to fetal | – | peak placental transfer | 35%
COc1cc(F)c(F)c(Nc2ccc(I)cc2F)c1NS(=O)(=O)C1(C[C@H](O)CO)CC1 | – | human patients, plasma | oral, 50 mg twice daily, cycle 1 day 14 | – | AUC(0-8 h) | 4910 ng·h/mL
CCOc1nc2cccc(C(=O)O)c2n1Cc1ccc(-c2ccccc2-c2nnn[nH]2)cc1 | shake-flask | PEG400 | 37 °C | – | thermodynamic solubility | 12.9 ± 1.33 mg/g
O=C(O)[C@H](c1ccccc1Cl)N1CCc2sccc2C1 | HPLC-MS/MS | feline citrate plasma | 6 h, -20 °C, storage stability | – | deviation from nominal | 0%
CS(=O)(=O)OC[C@H](O)[C@@H](O)COS(C)(=O)=O | – | Wistar rat, female, plasma | intraperitoneal, 500 mg/kg, 4 h | – | concentration | 94 µM
C[C@]12CC[C@@H]3c4ccc(O)cc4CC[C@H]3[C@@H]1C[C@@H](O)[C@@H]2O | GC-MS | breast cancer women on NSAI, serum | vaginal, 0.03 mg daily, 1 h, day 28 | – | maximum serum concentration | 0.0144 ng/mL
CCCC[C@H](NC(C)=O)C(=O)N[C@H]1CCC(=O)NC[C@@H](C(=O)N[C@@H](Cc2c[nH]c3ccccc23)C(N)=O)NC(=O)[C@H](CCCNC(=N)N)NC(=O)[C@@H](Cc2ccccc2)NC(=O)[C@H](Cc2c[nH]cn2)NC1=O | – | healthy human, both sexes, plasma | subcutaneous, 1.0 mg once daily, day 1, geometric mean | – | Vd/F | 115 L
COc1cccc(N2CCN(C3=Nc4c(F)cccc4[C@H](CC(=O)O)N3c3cc(C(F)(F)F)ccc3OC)CC2)c1 | – | healthy women, plasma | intravenous infusion, 240 mg, day 1, single dose, 30-min infusion | – | AUC(0-inf) | 30100 ± 5480 ng·h/mL

Excerpt of the above:
Substance | assay | system | conditions | how to read | endpoint | result
C[C@]12CC[C@@H]3c4ccc(O)cc4CC[C@H]3[C@@H]1C[C@@H](O)[C@@H]2O | GC-MS | breast cancer women on NSAI, serum | vaginal, 0.03 mg daily, 1 h, day 28 | – | maximum serum concentration | 0.0144 ng/mL
CCCC[C@H](NC(C)=O)C(=O)N[C@H]1CCC(=O)NC[C@@H](C(=O)N[C@@H](Cc2c[nH]c3ccccc23)C(N)=O)NC(=O)[C@H](CCCNC(=N)N)NC(=O)[C@@H](Cc2ccccc2)NC(=O)[C@H](Cc2c[nH]cn2)NC1=O | – | healthy human, both sexes, plasma | subcutaneous, 1.0 mg once daily, day 1, geometric mean | – | Vd/F | 115 L
COc1cccc(N2CCN(C3=Nc4c(F)cccc4[C@H](CC(=O)O)N3c3cc(C(F)(F)F)ccc3OC)CC2)c1 | – | healthy women, plasma | intravenous infusion, 240 mg, day 1, single dose, 30-min infusion | – | AUC(0-inf) | 30100 ± 5480 ng·h/mL
